Experimental data of several laboratories.
Compare with care: the assays were run in different laboratories. Several values in a cell are separate wells, animals, samples, runs or records.
Target: Homeodomain-interacting protein kinase 1 (HIPK1, Homo sapiens, UniProt Q86Z02)

Compound = CNC(=O)C[C@H](Cc1ccc(C#N)cc1)NC(=O)c1cc(-c2ccc(CN[C@H](C)c3ccc(C)cc3)o2)ccc1Cl; assay = enzyme activity, inhibitor; setting = 1 µM; quantity = activity vs control; result = 107%
Compound = NC(=O)[C@@H](O)C[C@H]1CCc2sc3ncnc(O[C@H]4CC[C@H](N5CCOCC5)CC4)c3c21; assay = enzyme activity, inhibitor; setting = 10 µM; quantity = inhibition; result = -1%
Compound = CCn1cc(C(=O)O)c(=O)c2c(N)c(F)c(NC3CCCCC3)cc21; assay = kinase activity; setting = 0.1 µM, added: ATP at Km; quantity = inhibition; result = 18.3%
Compound = CN1CC[C@@H](COc2cnc(C#N)cc2-c2ccn3nc(NC(=O)C4CC4)cc3c2)C1; assay = enzyme activity, inhibitor; setting = 1 µM; quantity = inhibition; result = 4%
Compound = C=CC(=O)N1Cc2nc(-c3cc(-c4cc(Cl)cnc4Cl)c(F)cc3F)n(-c3ccncn3)c2C1; assay = cell-free assay, inhibitor; setting = 1 µM; quantity = inhibition; result = 2.9%
Compound = C=CC(=O)Nc1cccc(-c2cnc3[nH]cc(C(=O)NC(C)(C)C)c3n2)c1; assay = kinase activity; setting = 0.1 µM; quantity = inhibition; result = 44% and 47%
Compound = CC(C)=CC1OC(C)(C)C2C=C3C(=O)C(Cl)=CC(O)C3C3C(O)C4OC4C(=O)C132 (stereo not drawn); assay = cell-free assay, competition with immobilised ligand; setting = 10 µM; quantity = remaining binding; result = 65%
Compound = C=CC(=O)N1CCc2ccc(-n3c(=O)ccc4cnc5ccc(-c6cnn(C)c6)cc5c43)cc21; assay = KINOMEscan; setting = 1 µM; how to read = relative to: DMSO control; quantity = remaining binding; result = 89%
Compound = COc1ccc(O)cc1-c1c[nH]c2ncc(-c3cncc(C(=O)N(C)C)c3)cc12; assay = binding, competition with immobilised ligand; setting = 0.2 µM; quantity = inhibition; result = -4.5%
Compound = COc1ccc(NC(=O)Nc2ccc3c(c2)C(=O)N(C(C)CO)CC(C)C(CN(C)Cc2ccc4c(c2)OCO4)O3)cc1 (stereo not drawn); assay = kinase activity, KinaseProfiler; setting = 0.03 µM, species human; how to read = relative to: control; quantity = remaining activity; result = 95%
Compound = Nc1ncc(-c2cc(-c3cnn(CC(F)(F)F)c3)ncc2F)nc1C(=O)NC1CNCC(F)C1 (stereo not drawn); assay = enzyme activity; setting = 1 µM; how to read = relative to: DMSO control; quantity = remaining activity; result = 106%
Compound = CN1CCN(Cc2ccc(-c3ccc(CO[C@H]4CCC[C@@H]4NC(=O)c4cc(-c5cnn(C)c5)cnc4N)cc3)cc2)CC1; assay = enzyme activity, inhibitor; setting = 0.1 µM; quantity = inhibition; result = 2%
Compound = O=C(Cc1ccc(OCc2ccccc2)cc1)NC1(C(=O)O)CCN(C(=O)c2ccc(-c3cccc(Cl)c3)cc2)CC1; assay = enzyme activity, inhibitor; setting = 10 µM; quantity = activity vs control; result = 92%
Compound = O=C=[N][Ru-4]123([n]4c5ccc(O)cc5c5c6c(c7cc(F)c[n+]1c7c54)C(=O)NC6=O)[S+]1CC[S+]2CC[S+]3CC1 (stereo not drawn); assay = enzyme activity; setting = 100 nM, human enzyme, added: 10 µM ATP; how to read = relative to: untreated; quantity = remaining activity; result = 85%
Compound = Cc1cccc(O[C@H]2CCC[C@@H](C(C)CNCc3ccncc3)C2)c1 (relative stereo); assay = enzyme activity, inhibitor; setting = 1 µM; quantity = inhibition; result = -1%

Some of these lines once more:
Compound = CN1CC[C@@H](COc2cnc(C#N)cc2-c2ccn3nc(NC(=O)C4CC4)cc3c2)C1; assay = enzyme activity, inhibitor; setting = 1 µM; quantity = inhibition; result = 4%
Compound = COc1ccc(NC(=O)Nc2ccc3c(c2)C(=O)N(C(C)CO)CC(C)C(CN(C)Cc2ccc4c(c2)OCO4)O3)cc1 (stereo not drawn); assay = kinase activity, KinaseProfiler; setting = 0.03 µM, species human; how to read = relative to: control; quantity = remaining activity; result = 95%
Compound = O=C=[N][Ru-4]123([n]4c5ccc(O)cc5c5c6c(c7cc(F)c[n+]1c7c54)C(=O)NC6=O)[S+]1CC[S+]2CC[S+]3CC1 (stereo not drawn); assay = enzyme activity; setting = 100 nM, human enzyme, added: 10 µM ATP; how to read = relative to: untreated; quantity = remaining activity; result = 85%
